Published values from different studies.
Protocols differ between the studies behind these lines. Several values in a cell are separate wells, animals, samples, runs or records. ± gives the spread as reported.

CCOC(F)(F)c1nnc2cnc(-c3cnc(OCC(F)(F)F)c(F)c3)cn12 — ED50 (protection against tonic extension seizures, maximal electroshock seizure test; male CD-1 mice; oral): 2 mg/kg
CN(C)C(=O)N[C@H]1CC[C@H](CCN2CCN(c3cccc(Cl)c3Cl)CC2)CC1 — open field activity (Sprague-Dawley rat, ouabain-induced mania; ip, 0.5 mg/kg daily, 7 days, squares in 30 min, with: ouabain icv single): 110 ± 19.2 squares crossed
COc1cc(F)c([C@@H]2CNC(=O)[C@H]2NC(=O)Nc2ccccc2)c(F)c1 — EC50 (zymosan phagocytosis, stimulator; peritoneal macrophages FPR1 knockout, mouse; BioGel-elicited): ~0.002 nM
COc1ccc(-n2c(SC/C(=N/O)c3ccc(Cl)cc3)nnc2-c2nnn(-c3ccc(S(N)(=O)=O)cc3)c2C)cc1 — NO released (Griess; phosphate buffer-methanol; 100 µM, 1 h, pH 7.4, 37 °C, with: N-acetylcysteine 0.5 mM; baseline: theoretical maximum release): 0.9%
O=C(O)Cc1ccccc1Nc1c(Cl)cccc1Cl — paw volume increase (rat carrageenan paw oedema; 10 mg/kg, 3 h): 0.23 ± 0.02 mm
YEGKK — labelled endothelial cells (neovascularization, [3H]thymidine labelling; peptide, BALB/c mouse female, sponge implant granulation tissue; 100 µM, day 14): 15.2%
Cc1ccc(NC(=O)c2ccc(CN3CCN(C)CC3)cc2)cc1Nc1nccc(-c2cncc(-c3oncc3C)c2)n1 — NMSS score (mild-to-moderate Parkinson's disease patients; oral, 100 mg once daily, day 7, on anti-Parkinson medication; direction not given): 19.2 ± 18.7
CC1(C)CC[C@]2(NC(=O)C(C)(F)F)CC[C@]3(C)[C@H](C(=O)C=C4[C@@]5(C)C=C(C#N)C(=O)C(C)(C)[C@@H]5CC[C@]43C)[C@@H]2C1 — CD8+ T cell response (IFN-γ ELISPOT; EL4 tumour-bearing mice, spleen; oral, 1 mg/kg daily, 13 days, with: PNT-S peptide pool; baseline: untreated): ~5 fold
CC(=O)Oc1ccccc1C(=O)O — thrombus weight decrease (rat, FeCl3 carotid thrombosis; oral, 65 µmol/kg, 1 h before injury, 25% ferric chloride; baseline: vehicle): 65%
CC[C@H](C)[C@H](NC(=O)[C@H](CCC(N)=O)NC(=O)[C@H](Cc1c[nH]cn1)NC(=O)[C@H](C)NC(=O)[C@H](CC(C)C)NC(=O)[C@H](CCCCN)NC(=O)[C@H](CCC(N)=O)NC(=O)[C@@H](NC(=O)[C@@H](NC(=O)[C@@H]1CSSC[C@H](NC(=O)CNC(=O)[C@H](Cc2ccccc2)NC(=O)[C@H](CO)NC(=O)[C@H](CCCNC(=N)N)NC(=O)[C@H](CC(C)C)NC(=O)CNC(=O)[C@H](CCC(N)=O)NC(=O)[C@H](Cc2ccccc2)NC(=O)[C@H](CC(N)=O)NC(=O)[C@H](CC(N)=O)NC(=O)[C@H](CCSC)NC(=O)[C@H](CO)NC(=O)[C@H](CCC(N)=O)NC(=O)[C@H](CCCNC(=N)N)NC(=O)[C@@H](N)Cc2ccc(O)cc2)C(=O)N[C@@H](CCCNC(=N)N)C(=O)N[C@@H](Cc2ccccc2)C(=O)NCC(=O)N[C@@H]([C@@H](C)O)C(=O)N1)[C@@H](C)O)C(C)C)C(=O)N[C@@H](Cc1ccc(O)cc1)C(=O)N[C@@H](CCC(N)=O)C(=O)N[C@@H](Cc1ccccc1)C(=O)N[C@H](C(=O)N[C@@H](CC(=O)O)C(=O)N[C@@H](CCCCN)C(=O)N[C@@H](CC(=O)O)C(=O)N[C@@H](CCCCN)C(=O)N[C@@H](CC(=O)O)C(=O)N[C@@H](CC(N)=O)C(=O)N[C@H](C(=O)N[C@@H](C)C(=O)N1CCC[C@H]1C(=O)N[C@@H](CCCNC(=N)N)C(=O)N[C@@H](CO)C(=O)N[C@@H](CCCCN)C(=O)N[C@H](C(=O)N[C@@H](CO)C(=O)N1CCC[C@H]1C(=O)N[C@@H](CCC(N)=O)C(=O)NCC(=O)N[C@@H](Cc1ccc(O)cc1)C(N)=O)[C@@H](C)CC)C(C)C)[C@@H](C)O — change in CDAI (patients, biologic-resistant Crohn's disease; intravenous infusion, 10 ng/kg/min, 16 weeks, unit not given, with: biologic; baseline: baseline): -45 ± 42
CCn1cnc(C[C@H](NC(=O)[C@@H]2CCC(=O)C2)C(=O)N2CCC[C@H]2C(N)=O)c1 — decrease in sleeping time (Swiss albino mice; intravenous, 10 µmol/kg, with: pentobarbital; baseline: control): 69% and 68.8%
COc1ccc(-n2c(SC/C(=N/O)c3ccccc3)nnc2-c2nnn(-c3ccc(S(N)(=O)=O)cc3)c2C)cc1 — NO released (Griess; phosphate buffer-methanol; 100 µM, 1 h, pH 7.4, 37 °C, with: N-acetylcysteine 0.5 mM; baseline: theoretical maximum release): 2.14%
COc1cnc(C(=O)Nc2ccc(F)c([C@]34CN(c5ncc(F)cn5)C[C@H]3CSC(N)=N4)c2)cn1 — time to nadir (measured: CSF Aβ1–40 and Aβ1–42; healthy humans; 1.6 mg single dose): ~8 h
cotadutide — change in time in range (measured: CGM glucose 70 to 180 mg/dL; human, type 2 diabetes, CKD; dose not given, day 32; baseline: baseline): 14.8%
NS(=O)(=O)c1ccc(-n2nc(C(F)(F)F)cc2-c2ccc(F)cc2F)cc1 — minimum effective concentration (measured: lameness score; Beagle dog, urate crystal arthritis, plasma): 536 ng/mL
SIIVFEKL — IFN-γ+ TNF-α+ cells (flow cytometry, measured: CD44hi CD8+ T cells; peptide, OT-I CD8+ T cells, mouse; dose not given, primed 5 days, TGF-β1 from day 2 onward, with: 20 ng/mL TGF-β1): 0.44%
CC(C)C[C@H](NC(=O)[C@H](CO)NC(=O)[C@H](CCCNC(=N)N)NC(=O)[C@H](CC(=O)O)NC(=O)[C@H](CCC(=O)O)NC(=O)[C@H](C)NC(=O)[C@@H]1CCCN1C(=O)[C@H](C)NC(=O)[C@H](CCC(=O)O)NC(=O)[C@@H]1CCCN1C(=O)[C@@H]1CCCN1)C(N)=O — TH+ neuron increase (measured: tyrosine hydroxylase; rat F344, unilateral 6-OHDA lesion, caudal SNpc; intranasal, dose not given; baseline: vehicle): 44%
CCCOc1ccc(S(=O)(=O)NCCC2CCCN2C)cc1-c1nc2c(CCC)nn(C)c2c(=O)[nH]1 (centres unmarked) — VO2 at anaerobic threshold (ramp cycle exercise test; human adolescents after Fontan palliation; oral, 87.5 mg once daily, day 5): 16.5 ± 4.8 mL/min/kg
CCOc1cc(/C=C2\CN(C(C)=O)CC3=C2OC(N)=C(C#N)C3c2ccc(O)c(OCC)c2)ccc1O (centres unmarked) — tumour size decrease (rat, DMBA-induced mammary tumour, mammary tumour; 2 mg/kg per week, day 42; baseline: before treatment): 79%
c1ccc(-c2ncc3cc(-n4ccnc4)ccc3n2)cc1 — paw withdrawal threshold (Randall-Selitto test; rat, capsaicin hyperalgesia; oral, 30 mg/kg, 1 h): 239 ± 12 g
COc1ccc2c(c1)c(CC(=O)O)c(C)n2C(=O)c1ccc(Cl)cc1 — cytokine level (multiplex bead immunoassay, measured: MCP-1; CD-1 mice, serum; ip, 20 mg/kg, three-injection regimen, with: LPS 3 mg/kg): 1160 ± 664 pg/mL
C=CCc1ccc(O)c(-c2ccc(O)c(CC=C)c2)c1 — fasting blood glucose (high-fat diet/STZ type 2 diabetic mice; oral, 200 mg/kg once daily, 8 weeks; baseline: diabetic control): decreased
insulin aspart — glucose infusion AUC (euglycemic clamp; healthy humans; subcutaneous, 0.2 IU/kg, 0 to 8 h, before propensity score matching): 1460 ± 396 mg/kg
SIYNFEKL — TNF-α only cells (flow cytometry, measured: CD44hi CD8+ T cells; peptide, OT-I CD8+ T cells, mouse; dose not given, primed 5 days, restimulated 100 ng/mL OVA257, with: no TGF-β1): 0%
COc1ccc(C2N[C@H](C(=O)O)Cc3c2[nH]c2ccccc32)cc1CN1CCN(c2ccccc2F)CC1 (some centres unmarked) — IC50 (glucose-induced calcium signal; mouse, isolated pancreatic islets; 30 min preincubation, with: glucose): 3000 nM
Polymyxin B — IL-8 release (human whole blood; 250 ng/mL, 4 h, 37 °C, with: E. coli LPS 0.5 ng/mL; baseline: LPS without compound): 49.1 ± 11%
cilengitide — Smad3 phosphorylation (measured: phospho-Smad3 Ser423/425; Sprague-Dawley rats, TNBS colitis, colonic muscle cells; ip, 18 mg/kg/day, 42 d): inhibited
Cc1c(CN2CCN(C(=O)[C@H](C)O)CC2)sc2c(N3CCOCC3)nc(-c3cnc(N)nc3)nc12 — IC50 (measured: pAkt; 786-O xenograft mice, tumour; oral, 0.3, 3, 10 mg/kg, PK-PD model, plasma concentration): 0.403 µg/mL
CC1(C)CCC(c2ccc(Cl)cc2)=C(CN2CCN(c3ccc(C(=O)NS(=O)(=O)c4ccc(N[C@H](CCN5CCOCC5)CSc5ccccc5)c(S(=O)(=O)C(F)(F)F)c4)cc3)CC2)C1 — EC50 (cell kill, PI exclusion flow cytometry; normal CD21+ B lymphocytes, dog, peripheral blood; 24 h): 1220 ± 1080 nM
Cc1cn(-c2cc(NC(=O)c3ccc(C)c(Nc4nccc(-c5cccnc5)n4)c3)cc(C(F)(F)F)c2)cn1 — UPDRS I-IV score (human; 150 mg, week 36 follow-up; direction not given): 124 and 74
Cc1cc(C)c(/C=C2\C(=O)Nc3ccccc32)[nH]1 — tumour volume (MRI; human; dose not given, 6.8 months): 65.8 cm³
C[C@H]1C[C@H]2CSC(N)=N[C@@]2(c2nc(NC(=O)c3ccc(OC(F)F)cn3)cs2)CO1 — change from baseline (measured: CSF Aβx-38; healthy adults; 50 mg once daily, 14 days, day 15; baseline: placebo-adjusted baseline): -59.8%
Cc1c(OCC(F)(F)F)ccnc1C[S@@+]([O-])c1nc2ccccc2[nH]1 — time with intragastric pH above threshold (healthy humans; oral, 60 mg, 0 to 24 h postdose, pH 4 threshold, single dose): 58%
O=C(NC[C@H]1CN(c2ccc(N3CCOCC3=O)cc2)C(=O)O1)c1ccc(Cl)s1 — prothrombin time Emax increase (human, mild renal impairment, plasma; oral, 10 mg, with: erythromycin at steady state; baseline: normal renal function, compound alone): ~20%
O=C(/C=C/c1cc(O)ccc1O)c1ccc(O)c(O)c1 — DPPH scavenging (ethanol; 20 µM, 30 min): > 80%
C[C@]12CC[C@@H]3c4ccc(O)cc4CC[C@H]3[C@@H]1CC[C@@H]2O — TMPRSS2 mRNA level (qRT-PCR; men with localised prostate cancer, prostate epithelium; dose not given; baseline: untreated men): decreased
CS/C(S)=N/CCCC[S+](C)[O-] (racemic) — mRNA fold change (RT-PCR, measured: Gad2; rat, liver; oral gavage, 200 mg/kg, 96 h, dosed for four days; baseline: vehicle): 3.54
PACAP — full-length APP level (APP V717I transgenic mouse, male; intranasal, 10 µg daily, 3 months): no effect

For quick reference, copied from above:
CCCOc1ccc(S(=O)(=O)NCCC2CCCN2C)cc1-c1nc2c(CCC)nn(C)c2c(=O)[nH]1 (centres unmarked) — VO2 at anaerobic threshold (ramp cycle exercise test; human adolescents after Fontan palliation; oral, 87.5 mg once daily, day 5): 16.5 ± 4.8 mL/min/kg
CCOc1cc(/C=C2\CN(C(C)=O)CC3=C2OC(N)=C(C#N)C3c2ccc(O)c(OCC)c2)ccc1O (centres unmarked) — tumour size decrease (rat, DMBA-induced mammary tumour, mammary tumour; 2 mg/kg per week, day 42; baseline: before treatment): 79%
c1ccc(-c2ncc3cc(-n4ccnc4)ccc3n2)cc1 — paw withdrawal threshold (Randall-Selitto test; rat, capsaicin hyperalgesia; oral, 30 mg/kg, 1 h): 239 ± 12 g
COc1ccc2c(c1)c(CC(=O)O)c(C)n2C(=O)c1ccc(Cl)cc1 — cytokine level (multiplex bead immunoassay, measured: MCP-1; CD-1 mice, serum; ip, 20 mg/kg, three-injection regimen, with: LPS 3 mg/kg): 1160 ± 664 pg/mL
C=CCc1ccc(O)c(-c2ccc(O)c(CC=C)c2)c1 — fasting blood glucose (high-fat diet/STZ type 2 diabetic mice; oral, 200 mg/kg once daily, 8 weeks; baseline: diabetic control): decreased
insulin aspart — glucose infusion AUC (euglycemic clamp; healthy humans; subcutaneous, 0.2 IU/kg, 0 to 8 h, before propensity score matching): 1460 ± 396 mg/kg
